{"data": "Measured values collected from several papers", "note": "Numbers after ± are the reported error."}
{"Structure (SMILES)": "CN1CCCC2(C1)CN(Cc1cccnc1)c1ccc(C(=O)NCC3CCCCC3)cc12 (stereo not shown)", "tested on": "Vero-E6", "test": "CellTiter-Glo ATP", "setting": "concentration not given, 72 h, second round 5-point", "how to read": "baseline: DMSO 0%, hyamine -100%, more negative, more toxic", "quantity": "cytotoxicity efficacy", "result": "18.7%"}
{"Structure (SMILES)": "CCOP(=S)(OCC)SCSCC", "tested on": "Oncorhynchus kisutch", "test": "sulfoxide formation, substrate", "test system": "liver microsomes", "setting": "30 min, pH 7.6, freshwater-acclimated", "quantity": "Km", "result": "5.95 ± 1.79 µM"}
{"Structure (SMILES)": "OC(CCN1CC=C(c2ccc(F)cc2)CC1)c1ccc(F)c2ccccc12 (stereo not shown)", "tested on": "Salmonella typhimurium", "test": "SOS/umu test", "test system": "TA1535/pSK1002", "setting": "0.25 mg/mL, 4 h, with S9, lower range", "quantity": "survival", "result": "151%"}
{"Structure (SMILES)": "COc1cccc(-c2n[nH]c(SCc3ccccn3)n2)c1OC", "tested on": "Salmonella typhimurium", "test": "Ames test, plate incorporation", "test system": "TA100", "setting": "0.25 mg/plate, with rat liver S9", "quantity": "revertant colonies per plate", "result": 105}
{"Structure (SMILES)": "CCOC(=O)C1=C(CN2CCC(C(=O)Nc3cccc(B4OC(C)(C)C(C)(C)O4)c3)C2)NC(c2nccs2)=NC1c1ccc(F)cc1Br (stereo not shown)", "tested on": "hepatitis B virus", "test system": "HepDES19", "how to read": "baseline: CC50 over EC50", "quantity": "selectivity index", "result": 38}
{"Structure (SMILES)": "O=C(Nc1cc(F)c(F)c(F)c1)c1ccc(F)c(S(=O)(=O)NCc2cccc(B(O)O)c2)c1", "tested on": "hepatitis B virus", "test system": "HepAD38", "how to read": "baseline: CC50 over EC50", "quantity": "selectivity index", "result": 8.73}
{"Structure (SMILES)": "CNC(=O)c1c(N(C)N=O)ncn1C", "tested on": "Salmonella typhimurium", "test": "plate incorporation", "test system": "TA100, water", "setting": "500 µg/plate, without S9", "quantity": "revertant colonies per plate", "result": "194 ± 26"}
{"Structure (SMILES)": "CCOC(=O)C1=C(CN2CCCC2C(=O)Nc2ccc(B3OC(C)(C)C(C)(C)O3)cc2)NC(c2nccs2)=NC1c1ccc(F)cc1Br (stereo not shown)", "tested on": "hepatitis B virus", "test system": "HepDES19", "how to read": "baseline: CC50 over EC50", "quantity": "selectivity index", "result": 128}
{"Structure (SMILES)": "O=[N+]([O-])c1ccc(N2CCC(NCCC(O)c3ccc(F)c4ccccc34)CC2)c(C(F)(F)F)c1 (stereo not shown)", "tested on": "Salmonella typhimurium", "test": "SOS response, SOS/umu test", "test system": "TA1535/pSK1002, TGA medium", "setting": "0.000122 mg/mL, 4 h, without S9", "how to read": "baseline: untreated", "quantity": "induction factor", "result": 0.6}
{"Structure (SMILES)": "CC(=O)N1CCC(C(=O)N2CCN3C(=O)c4cc(-c5ccccc5)ccc4NC(=O)C3C2)CC1 (stereo not shown)", "tested on": "Escherichia coli", "test system": "WP2 uvrA", "setting": "15.8 µg/plate, with rat liver S9", "how to read": "baseline: vehicle", "quantity": "revertant fold increase", "result": 0.9}
{"Structure (SMILES)": "O=[N+]([O-])c1ccc(NC2CCNCC2)c(C(F)(F)F)c1", "tested on": "Salmonella typhimurium", "test": "SOS response, SOS/umu test", "test system": "TA1535/pSK1002", "setting": "0.001 mg/mL, 4 h, without S9 activation", "quantity": "umu induction factor", "result": 0.7}
{"Structure (SMILES)": "CCOC(=O)C1=C(CN2CCC(C(=O)Nc3ccc(B(O)O)cc3)C2)NC(c2nccs2)=NC1c1ccc(F)cc1Br (stereo not shown)", "tested on": "hepatitis B virus", "test system": "HepDES19", "how to read": "baseline: CC50 over EC50", "quantity": "selectivity index", "result": 54}
{"Structure (SMILES)": "Cc1cc(C(=O)NC(C)(C)COc2cccc3c2C(N)=NS(=O)(=O)N3)cc(C)n1", "tested on": "Salmonella typhimurium", "test": "Ames test, initial", "test system": "TA1537", "setting": "150 µg/plate", "how to read": "baseline: solvent control", "quantity": "revertant ratio", "result": 1.2}
{"Structure (SMILES)": "CCOC(=O)C1=C(CN2CCC[C@@H]2C(=O)Nc2ccc(B(O)O)cc2)NC(c2nccs2)=N[C@H]1c1ccc(F)cc1Br", "tested on": "hepatitis B virus", "test system": "HePAD38", "how to read": "baseline: CC50 over EC50", "quantity": "selectivity index", "result": 26500}
{"Structure (SMILES)": "[Cl-].[Cl-].[Pt+2].[Ru+2].c1ccc(-c2nc3cc4ccccc4cc3nc2-c2ccccn2)nc1.c1cnc2c(c1)ccc1cccnc12.c1cnc2c(c1)ccc1cccnc12", "tested on": "Danio rerio", "test system": "embryos", "setting": "45 µM, 0 h", "quantity": "survival rate", "result": "100%"}
{"Structure (SMILES)": "CCCN(CCC)CCCNC(=O)C1CCCN(Cc2nc(-c3ccc(Cl)cc3)oc2C)C1 (stereo not shown)", "tested on": "Vero-E6", "test": "CellTiter-Glo ATP", "setting": "concentration not given, 72 h, second round 5-point", "how to read": "baseline: DMSO 0%, hyamine -100%, more negative, more toxic", "quantity": "cytotoxicity efficacy", "result": "-19%"}
{"Structure (SMILES)": "CCOC(=O)C1=C(CN2CCN(Cc3cccc(B4OC(C)(C)C(C)(C)O4)c3)CC2)NC(c2nccs2)=NC1c1ccc(F)cc1Br (stereo not shown)", "tested on": "hepatitis B virus", "test system": "HepDES19", "how to read": "baseline: CC50 over EC50", "quantity": "selectivity index", "result": 18}
{"Structure (SMILES)": "COc1ccnc(C(=O)N[C@H]2COC(=O)[C@H](Cc3ccccc3)[C@@H](OC(=O)C(C)C)[C@H](C)OC2=O)c1OCOC(=O)C(C)C", "tested on": "fish", "test": "mortality, geometric mean of 4 species", "setting": "water exposure, flow-through, 96 h", "quantity": "LC50", "result": "3.82 ng/mL"}
{"Structure (SMILES)": "[Cl-].[Cl-].[Pt+2].[Ru+2].c1ccc(-c2nccnc2-c2ccccn2)nc1.c1cnc2c(c1)ccc1cccnc12.c1cnc2c(c1)ccc1cccnc12", "tested on": "Danio rerio", "test system": "embryos", "setting": "90 µM, 48 h", "quantity": "survival rate", "result": "36.7 ± 3.2%"}
{"Structure (SMILES)": "Fc1ccc(C2=CCNCC2)cc1", "tested on": "Salmonella typhimurium", "test": "SOS/umu test", "test system": "TA1535/pSK1002", "setting": "0.002 mg/mL, 4 h, with S9, full range", "quantity": "survival", "result": "103%"}
{"Structure (SMILES)": "CCOC(=O)C1=C(CN2CCC[C@H]2C(=O)Nc2cccc(B(O)O)c2)NC(c2nccs2)=N[C@@H]1c1ccc(F)cc1Br", "tested on": "hepatitis B virus", "test system": "HepDES19", "how to read": "baseline: CC50 over EC50", "quantity": "selectivity index", "result": 1}
{"Structure (SMILES)": "N#C[C@@]1(n2ccc(N)nc2=O)O[C@H](CO)[C@@H](O)[C@H]1O", "tested on": "Salmonella typhimurium", "test system": "TA1537", "setting": "600 nM, without S9", "quantity": "viability", "result": "98%"}
{"Structure (SMILES)": "[Cl-].[Cl-].[Pt+2].[Ru+2].c1ccc(-c2nc3ccccc3nc2-c2ccccn2)nc1.c1cnc2c(c1)ccc1cccnc12.c1cnc2c(c1)ccc1cccnc12", "tested on": "Danio rerio", "test system": "embryos", "setting": "15 µM, 24 h", "quantity": "survival rate", "result": "90 ± 2.1%"}
{"Structure (SMILES)": "O=[N+]([O-])c1ccc(N2CCN(CCC(O)c3ccc(F)cc3)CC2)c(C(F)(F)F)c1 (stereo not shown)", "tested on": "Salmonella typhimurium", "test": "genotoxicity, SOS/umu test", "test system": "TA1535/pSK1002", "setting": "0.125 mg/mL, 4 h, with S9, full range", "quantity": "induction factor", "result": 1.1}
{"Structure (SMILES)": "CCOC(=O)C1=C(CN2CCC(C(=O)Nc3ccccc3B3OC(C)(C)C(C)(C)O3)C2)NC(c2nccs2)=NC1c1ccc(F)cc1Br (stereo not shown)", "tested on": "hepatitis B virus", "test system": "HepDES19", "how to read": "baseline: CC50 over EC50", "quantity": "selectivity index", "result": "> 16"}
{"note": "Repeated from above:"}
{"Structure (SMILES)": "[Cl-].[Cl-].[Pt+2].[Ru+2].c1ccc(-c2nc3cc4ccccc4cc3nc2-c2ccccn2)nc1.c1cnc2c(c1)ccc1cccnc12.c1cnc2c(c1)ccc1cccnc12", "tested on": "Danio rerio", "test system": "embryos", "setting": "45 µM, 0 h", "quantity": "survival rate", "result": "100%"}
{"Structure (SMILES)": "CCOP(=S)(OCC)SCSCC", "tested on": "Oncorhynchus kisutch", "test": "sulfoxide formation, substrate", "test system": "liver microsomes", "setting": "30 min, pH 7.6, freshwater-acclimated", "quantity": "Km", "result": "5.95 ± 1.79 µM"}
{"Structure (SMILES)": "CN1CCCC2(C1)CN(Cc1cccnc1)c1ccc(C(=O)NCC3CCCCC3)cc12 (stereo not shown)", "tested on": "Vero-E6", "test": "CellTiter-Glo ATP", "setting": "concentration not given, 72 h, second round 5-point", "how to read": "baseline: DMSO 0%, hyamine -100%, more negative, more toxic", "quantity": "cytotoxicity efficacy", "result": "18.7%"}
